Published values collected from several papers.
Each line is one published result; not all experiments were run side by side. ± marks the error that the study gave. Square brackets hold non-standard residues; d marks the D form. Where no end group is shown, it is not given here. Ends that are not written are not given here. No end group written: not given here. [ ]: non-standard residue; d: D form. The star is where a group is joined.
GNAI1: GNAI1 (Homo sapiens, UniProt P63096)
Chain of UniProt P63096 (whole entry, looked up): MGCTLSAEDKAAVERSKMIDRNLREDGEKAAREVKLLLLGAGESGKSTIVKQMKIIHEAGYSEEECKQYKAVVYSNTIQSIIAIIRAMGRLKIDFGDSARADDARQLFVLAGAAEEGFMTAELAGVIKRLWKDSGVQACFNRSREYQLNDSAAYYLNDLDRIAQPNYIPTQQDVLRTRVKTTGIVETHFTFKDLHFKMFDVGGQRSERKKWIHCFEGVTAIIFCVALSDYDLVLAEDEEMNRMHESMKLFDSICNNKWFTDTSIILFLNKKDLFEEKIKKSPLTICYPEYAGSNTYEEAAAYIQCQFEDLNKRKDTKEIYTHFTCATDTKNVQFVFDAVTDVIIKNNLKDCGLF
B1: LiaR (Enterococcus faecium); chain MIKVLLVDDHEMVRLGVSSYLSIQEDIEVIGEAENGRQGYEKAMALRPDVILMDLVMEEMDGIESTKAILKDWPKAKIIIVTSFIDDEKVYPAIEAGAAGYLLKTSTAHEIADAIRATQRGERVLEPEVTTKMMEKMSRRNDPVLHEELTNRENEILMLISEGKSNQEIADELFITLKTVKTHVSNILAKLEVEDRTQAAIYAFKHGLVK
B2: HUB1 1-73 (Saccharomyces cerevisiae, UniProt Q6Q546); chain MIEVVVNDRLGKKVRVKCLAEDSVGDFKKVLSLQIGTQPNKIVLQKGGSVLKDHISLEDYEVHDQTNLELYYL
B3: CIS43 Fab Fab (Homo sapiens); V domains shown; VH QVQLVQSGAEVKKPGASVKVSCKASGYTFTSYAIHWVRQAPGQRLEWMGWIKAGNGNTRYSQKFQDRVTITRDTSTTTAYMELSSLRSEDTAVYYCALLTVLTPDDAFDIWGQGTMVTVSS; VL DIVMTQSPDSLAVSLGERATINCKSSQSVLYSSNNKNYLAWYQQKPGQPPNLLIYWASTRQSGVPDRFSGSGSGTDFTLTISSLQAEDVAVYYCHQYYSSPLTFGGGTKVEIK
Chain of UniProt P35222 (whole entry, looked up): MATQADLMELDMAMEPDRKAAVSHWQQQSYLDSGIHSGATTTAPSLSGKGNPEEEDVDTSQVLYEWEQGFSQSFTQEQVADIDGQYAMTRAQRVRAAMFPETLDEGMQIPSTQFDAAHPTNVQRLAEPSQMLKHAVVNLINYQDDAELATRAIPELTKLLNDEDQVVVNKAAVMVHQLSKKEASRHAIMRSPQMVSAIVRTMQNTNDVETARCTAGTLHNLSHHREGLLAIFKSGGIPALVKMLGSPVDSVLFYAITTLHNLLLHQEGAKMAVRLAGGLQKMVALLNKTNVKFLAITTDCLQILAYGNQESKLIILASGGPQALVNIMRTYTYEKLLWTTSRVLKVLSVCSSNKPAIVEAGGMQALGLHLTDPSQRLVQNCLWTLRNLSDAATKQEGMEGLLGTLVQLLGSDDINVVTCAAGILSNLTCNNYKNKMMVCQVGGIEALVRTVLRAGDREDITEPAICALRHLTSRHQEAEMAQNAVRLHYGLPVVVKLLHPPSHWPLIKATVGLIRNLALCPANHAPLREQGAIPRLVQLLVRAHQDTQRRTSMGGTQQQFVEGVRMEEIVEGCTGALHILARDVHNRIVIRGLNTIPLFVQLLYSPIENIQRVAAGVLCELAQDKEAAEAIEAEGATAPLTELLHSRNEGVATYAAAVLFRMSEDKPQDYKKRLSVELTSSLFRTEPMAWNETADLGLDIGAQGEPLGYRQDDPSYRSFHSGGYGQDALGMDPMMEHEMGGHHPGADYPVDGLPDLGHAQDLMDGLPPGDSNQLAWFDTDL
Chain of UniProt P00772 (whole entry, looked up): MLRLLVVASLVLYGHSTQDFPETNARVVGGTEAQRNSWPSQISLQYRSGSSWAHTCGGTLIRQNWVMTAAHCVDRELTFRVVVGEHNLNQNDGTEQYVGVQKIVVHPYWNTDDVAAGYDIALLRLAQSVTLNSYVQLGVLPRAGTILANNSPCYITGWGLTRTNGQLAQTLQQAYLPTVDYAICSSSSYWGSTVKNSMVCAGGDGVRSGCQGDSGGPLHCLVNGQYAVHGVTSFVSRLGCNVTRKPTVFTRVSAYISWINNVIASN
Chain of UniProt O15392 (whole entry, unmodified, looked up): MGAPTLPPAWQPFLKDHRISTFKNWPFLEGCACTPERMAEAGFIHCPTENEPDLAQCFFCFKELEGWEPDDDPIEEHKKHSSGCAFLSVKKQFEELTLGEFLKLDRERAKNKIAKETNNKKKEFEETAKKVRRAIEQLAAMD
Chain of UniProt P0A722 (whole entry, looked up): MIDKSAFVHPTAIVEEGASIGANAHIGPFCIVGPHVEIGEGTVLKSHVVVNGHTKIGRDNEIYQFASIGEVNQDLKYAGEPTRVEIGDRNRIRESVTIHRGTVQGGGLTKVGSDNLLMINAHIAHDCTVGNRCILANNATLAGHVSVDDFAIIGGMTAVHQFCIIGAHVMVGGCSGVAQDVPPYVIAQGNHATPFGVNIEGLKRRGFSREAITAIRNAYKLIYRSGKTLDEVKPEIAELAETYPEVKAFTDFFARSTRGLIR

| Substance | target or system | assay | system | conditions | scale | quantity | value |
| --- | --- | --- | --- | --- | --- | --- | --- |
| {FITC-βAla}-TNLYMLPKWDIP-NH2 (peptide; SMILES CC[C@H](C)[C@H](NC(=O)[C@H](CC(=O)O)NC(=O)[C@H](Cc1c[nH]c2ccccc12)NC(=O)[C@H](CCCCN)NC(=O)[C@@H]1CCCN1C(=O)[C@H](CC(C)C)NC(=O)[C@H](CCSC)NC(=O)[C@H](Cc1ccc(O)cc1)NC(=O)[C@H](CC(C)C)NC(=O)[C@H](CC(N)=O)NC(=O)[C@@H](NC(=O)CCNC(=S)Nc1ccc2c(c1)C(=O)OC21c2ccc(O)cc2Oc2cc(O)ccc21)[C@@H](C)O)C(=O)N1CCC[C@H]1C(N)=O; N-terminal β-Ala-fluorescein; FITC = O=C1OC2(c3ccc(O)cc3Oc3cc(O)ccc32)c2ccc(NC(=S)*)cc21; βAla = NCCC(=O)O) | lpxA (Escherichia coli, UniProt P0A722) | fluorescence polarisation | peptide | pH 8.0, 30 °C, direct binding, Hill fit | – | Kd | 17 ± 1.6 µM |
| echistatin | ITGAV/ITGB3 whole, on cells (Homo sapiens) | radioligand binding | – | – | – | IC50 | 0.0033 µM |
| GLSQEQLEHRERSLQTLRDIQRMLFP-NH2 (BCL9 350-375 (Homo sapiens); C-terminal amide) | CTNNB1 (Homo sapiens, UniProt P35222) | AlphaScreen or HTRF | peptide | – | – | Kd | 0.23 µM |
| AR[pT]KQTARKSTG (H3C1 1-12; pT3; pT = C[C@@H](OP(=O)(O)O)[C@H](N)C(=O)O) | BIRC5 1-142 (Homo sapiens, UniProt O15392) | ITC | peptide | pH 7.6, 25 °C | – | Kd | 6.29 ± 0.31 µM |
| denileukin diftitox DT /IL-2 (Homo sapiens) | COPA/COPB1/COPB2/COPG1/COPE/COPZ1/ARCN1 (Bos taurus) | leucine incorporation | HuT102 | endogenous COPI | – | cytotoxicity | 10 pM |
| NSRQTDR | – | – | peptide, human polyclonal IgM RF STR | concentration not given, 5 µg/mL mAb II-481 coated, added: RF at 50% max binding concentration | – | inhibition | 0% |
| B1 (LiaR) | liaS 81-355 (Enterococcus faecium, UniProt A0A1B1EYN7) | MST | – | phosphorylated, added: ATP 0.2 mM | – | Kd | 102 ± 1.2 µM |
| VARKTRHVNILLFMG (BRAF 504-518 L505A) | BRAF kinase domain with dimer interface | fluorescence titration | peptide | – | – | Kd | 0.45 ± 0.03 µM |
| B2 (HUB1 1-73) | SNU66 N-terminal domain (Saccharomyces cerevisiae) | SEC | – | – | – | molecule per partner | 2 Hub1 molecules |
| CNSRQTDREDELI | – | – | peptide, human polyclonal IgM RF LOP | concentration not given, 5 µg/mL mAb II-481 coated, added: RF at 50% max binding concentration | – | inhibition | 0% |
| AALEAKICHQIEYYFGDF (La peptide 11-28 (UniProt P05455); FITC label; sequence looked up) | SSB 29-408 (Homo sapiens, UniProt P05455) | SEC | peptide | 2 h, pH 7.5, 37 °C, added: FITC-LAP 28 µM | – | binding | binds |
| melittin | – | isothermal titration calorimetry | POPC/POPG LUVs 50:50% | 100 µM, pH 7.0, 25 °C | – | partitioning enthalpy | -4.7 kcal/mol |
| GVLRKTRHVNILLFMGYST (BRAF 503-521) | BRAF kinase domain with dimer interface | fluorescence titration | peptide | – | – | Kd | 3.84 ± 0.32 µM |
| RmS-6, glycosylated (Rhipicephalus microplus) | F11 factor XIa (Homo sapiens) | chromogenic substrate hydrolysis, inhibitor | – | 1 µM | – | protease inhibition | 62.9% |
| GVLRKTRHVNILLFMG (BRAF 503-518) | BRAF kinase domain with dimer interface | fluorescence titration | peptide | – | – | Kd | 1.88 ± 0.36 µM |
| B3 (CIS43 Fab Fab) | CSP (Plasmodium falciparum, UniProt Q7K740) | BLI | Fab | 25 °C | – | binding | binds |
| RmS-17, glycosylated (Rhipicephalus microplus) | CELA1 (Sus scrofa, UniProt P00772) | chromogenic substrate hydrolysis, inhibitor | – | 1 µM | – | protease inhibition | < 20% |
| BILF1 H66A/F286A/H288A (Epstein-Barr virus) | GNAI1 | IP3 accumulation | HEK293 | – | relative to: wild-type BILF1, higher = more signaling | relative Gi signaling | 76% |
| AR[pT]KQTARKSTGGKA (histone H3 2-16 (UniProt P68431); pT3; pT = C[C@@H](OP(=O)(O)O)[C@H](N)C(=O)O; sequence looked up) | BIRC5 E65A (Homo sapiens, UniProt O15392) | ITC | peptide | pH 7.5, 25 °C, NaCl 100 mM | – | Kd | 93.4 ± 6.5 µM |
| BILF1 K122A (Epstein-Barr virus) | GNAI1 | IP3 accumulation | HEK293 | – | relative to: wild-type BILF1, higher = more signaling | relative Gi signaling | 16% |
| GVLRKARHVNILLFMGYST (BRAF residues 503-521 T508A) | BRAF kinase domain with dimer interface | ITC | peptide | – | – | ΔH | -8.32 kcal/mol |

Repeated from above:
| Substance | target or system | assay | system | conditions | scale | quantity | value |
| --- | --- | --- | --- | --- | --- | --- | --- |
| GVLRKTRHVNILLFMGYST (BRAF 503-521) | BRAF kinase domain with dimer interface | fluorescence titration | peptide | – | – | Kd | 3.84 ± 0.32 µM |
